Published values collected from several papers.
Parts stem from different laboratories: compare values within a part only. Changes are numbered by the printed parent chain.

Series 1
Target: CCNE2, cyclin fold, Cln2 fusion (human)
Technique: yeast growth competition, sequencing
Matrix: yeast
Setting: weak parent motif
Reference: not given
Reading: higher = stronger binding
Starting sequence: RB1 docking peptide (human); PKPLKKLRFDIEG
Change	normalised enrichment score
PKPLKKLRFRIEG [D10R]	2.13
PGPLKKLRFDIEG [K2G]	0.117
SKPLKKLRFDIEG [P1S]	0.287
PKPLKKERFDIEG [L7E]	0.0747
PKPLKHLRFDIEG [K6H]	0.741
PKHLKKLRFDIEG [P3H]	-0.389
PKPLKKLRFDKEG [I11K]	0.467
PKPLKKLSFDIEG [R8S]	0.3
PKPLKMLRFDIEG [K6M]	0.206

Series 2
Target: Interferon regulatory factor 7, full length, phosphomimetic (IRF7, Homo sapiens, UniProt Q92985, residues 1-503, S471D/S472D/S475D/S476D/S477D/S483D/S484D/S487D)
Chain of UniProt Q92985 (whole entry, unmodified, looked up): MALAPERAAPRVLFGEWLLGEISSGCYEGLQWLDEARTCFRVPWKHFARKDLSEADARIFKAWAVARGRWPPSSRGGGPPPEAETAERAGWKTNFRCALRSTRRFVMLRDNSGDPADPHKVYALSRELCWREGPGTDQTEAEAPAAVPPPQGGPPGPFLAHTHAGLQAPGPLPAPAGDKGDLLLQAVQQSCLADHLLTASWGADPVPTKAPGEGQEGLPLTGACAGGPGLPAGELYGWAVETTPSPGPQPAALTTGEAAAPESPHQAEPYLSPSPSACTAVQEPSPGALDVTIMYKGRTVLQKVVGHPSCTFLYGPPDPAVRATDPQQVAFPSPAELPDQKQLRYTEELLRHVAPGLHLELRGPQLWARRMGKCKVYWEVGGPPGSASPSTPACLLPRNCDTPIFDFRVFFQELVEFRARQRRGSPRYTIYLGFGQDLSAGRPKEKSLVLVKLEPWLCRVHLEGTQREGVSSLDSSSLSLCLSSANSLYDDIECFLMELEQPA
Technique: protein-binding microarray
Form: double-stranded DNA, one strand shown
Matrix: in vitro
Tested at: 2200 nM top
Setting: 60-bp whole probe
Together with: salmon DNA 0.4 mg/ml
Reference: random background probes
Reading: higher = stronger binding
Shared flanks, not repeated: GCCTAGCAC … GTCTTGATTCGCTTGACGCTGCTG
Oligonucleotide	fitted relative affinity [z-score]
TTAGATTTCAGGTTTCGATTAGTGCTA	4.09
GACGGTATCGACACTGAGGACGTGCTA	-0.147
TCAAGTCCCCTCTTCTGACTGTGCTAG	0.945
TTTTGCTTTCTTTTATGCTCGTGCTAG	6.27
AACAGGAGCAGATGGGAAGTGTGCTAG	-0.539
GACGAACTGGGGACCGGAGACGTGCTA	-0.586

Series 3
Target: Prothrombin, mature alpha-thrombin (F2, Homo sapiens, UniProt P00734)
Technique: aptamer microarray, sandwich
Form: DNA with 2'F-ANA
Matrix: in vitro
Tested at: 200 nM
Setting: whole 15-mer aptamer, many near background
Together with: Cy3 exosite-II aptamer, 400 nM
Reading: higher = stronger binding
Oligonucleotide: GGTTGGTGTGGTTGG
Modification	mean fluorescence intensity [a.u.]
2'F-ANA at 1 2 5 9 10 12 13 14	68.2
2'F-ANA at 1 7 8 11 12 13 15	289
2'F-ANA at 1 3 6 7 8 10 13 15	78.3
2'F-ANA at 3 5 6 7 8 9 10 11	53.2
2'F-ANA at 1 4 5 6 10 11 13 15	52.3
2'F-ANA at 3 4 7 10 12 15	480

Further values, each from its own experiment
Substance	target	assay	test system	conditions	how to read	quantity	result
PhoQ, residues 284 288 289 292 302 303 ASASEQ	PhoP, residues 12 14 15 18 19 NHFRA (Escherichia coli, UniProt P23836)	Sort-seq, measured: YFP reporter	E. coli	PhoQ-PhoP variant library, together with: 10 µM Mg2+	reference: high Mg2+ state, higher = stronger signaling	fold induction	1.69

For quick reference, copied from above (series 1):
Change	normalised enrichment score
PKPLKHLRFDIEG [K6H]	0.741
PGPLKKLRFDIEG [K2G]	0.117
PKPLKKLSFDIEG [R8S]	0.3
